Published values collected from several papers.

Structure (SMILES) | species | sample | route | dose | notes | half-life
CCCC[C@@H]1NC(=O)[C@H](Cc2ccc(O)cc2)NC(=O)[C@@H]2CCCN2C(=O)[C@H](CC(=O)O)NC(=O)[C@H](C)NC(=O)[C@H](Cc2ccccc2)NC(=O)[C@@H]2CSCCC(=O)N3CN(CN(C3)C(=O)CCSC[C@@H](C(=O)N[C@@H](C)C(N)=O)NC1=O)C(=O)CCSC[C@H](NC(C)=O)C(=O)N[C@@H](CC(C)(C)C)C(=O)N1CCC[C@H]1C(=O)N[C@@H](CCC(=O)O)C(=O)N[C@H](CCCCNC(=O)CCc1cn(CCOCCOCCOCCN(CCOCCOCCOCCC(=O)N[C@H]3CSCCC(=O)N4CN5CN(C4)C(=O)CCSC[C@H](NC(=O)[C@@H](CC(=O)O)NC(=O)[C@H](Cc4cccc6ccccc46)NC(=O)[C@@H]4CCCN4C3=O)C(=O)N[C@@H](CCSC)C(=O)N[C@@H](CCCCNC(=N)N)C(=O)N[C@@H](CC(=O)O)C(=O)N[C@@H](Cc3c[nH]c4ccccc34)C(=O)N[C@@H](CO)C(=O)N[C@@H]([C@@H](C)O)C(=O)N3CCC[C@H]3C(=O)N3C[C@H](O)C[C@H]3C(=O)N[C@@H](Cc3c[nH]c4ccccc34)C(=O)N[C@H](C(N)=O)CSCCC5=O)CCOCCOCCOCCn3cc(CCC(=O)NCCCC[C@H]4NC(=O)[C@H](CCC(=O)O)NC(=O)[C@@H]5CCCN5C(=O)[C@H](CC(C)(C)C)NC(=O)[C@@H](NC(C)=O)CSCCC(=O)N5CN6CN(C5)C(=O)CCSC[C@H](NC(=O)[C@H](Cc5ccc(O)cc5)NC(=O)[C@@H]5CCCN5C4=O)C(=O)N[C@@H](Cc4ccccc4)C(=O)N[C@@H](C)C(=O)N[C@@H](CC(=O)O)C(=O)N4CCC[C@H]4C(=O)N[C@@H](Cc4ccc(O)cc4)C(=O)N[C@@H](CCCC)C(=O)N[C@H](C(=O)N[C@@H](C)C(N)=O)CSCCC6=O)nn3)nn1)C(=O)N1CCC[C@H]1C(=O)N[C@@H](Cc1ccc(O)cc1)C(=O)N2 | mouse | plasma | intravenous | 30 mg/kg | – | ~2.3 h
COc1nc(CC=C(C)CC=CC(C)=CC(C)C(OC2OC(CO)C(O)C(O)C2O)C(C)=CCO)c(C)c(O)c1OC (stereo not drawn) | male C57BL/6 mouse | plasma | intravenous | 2 mg/kg | – | 0.443 h
O=c1cc(-c2ccccc2)oc2c(Br)c(O)c(O)c(O)c12 | C57BL/6 mouse | plasma | oral | 150 mg/kg | single dose | 6.4 h
O=C(CN1CCN(c2cc3c(cc2F)c(=O)c(C(=O)O)cn3C2CC2)CC1)Nc1ccc(Cl)cc1 | mouse | plasma | intravenous | 1.25 mg/kg | – | 5.68 h
CC(C)[C@H]1NC(=O)C[C@H]2/C=C/CCSSC[C@@H](NC1=O)C(=O)N[C@H](Cc1cccc3ccccc13)C(=O)NCC(=O)O2 | nude mouse | blood | oral | 12 mg/kg | – | 0.4 h
COc1ccc(F)cc1S(=O)(=O)Nc1cnc2c(c1)C(=O)NCCO2 | male C57BL/6 mouse | plasma | oral | 3 mg/kg | single dose | 1.4 h
CCCCCCCC(=O)NC[C@H](NC(=O)[C@H](CO)NC(=O)CN)C(=O)N[C@@H](Cc1ccccc1)C(=O)N[C@@H](CC(C)C)C(=O)N[C@@H](CO)C(=O)N1CCC[C@H]1C(=O)N[C@@H](CCC(=O)O)C(=O)N[C@@H](Cc1c[nH]cn1)C(=O)N[C@@H](CCC(N)=O)C(=O)N[C@@H](CCCNC(=N)N)C(=O)N[C@H](C(=O)N[C@@H](CCC(N)=O)C(=O)N[C@H](C(=O)N[C@@H](CCCNC(=N)N)C(=O)N1CCC[C@H]1C(=O)N1CCC[C@H]1C(=O)N[C@@H](Cc1c[nH]cn1)C(=O)N[C@@H](CCCCN)C(=O)N[C@@H](C)C(=O)N1CCC[C@H]1C(=O)N[C@@H](Cc1c[nH]cn1)C(=O)N[C@H](C(=O)N[C@H](C(=O)O)C(C)C)C(C)C)C(C)C)C(C)C | mouse | plasma | intraperitoneal | 7.2 mg/kg | – | 0.198 h
CS(C)(=O)=Nc1ccc(-c2ccc(-c3nc4cc(O[C@@H]5CO[C@H]6[C@@H]5OC[C@H]6O)[nH]c4cc3F)cc2)cc1 | female C57BL/6 mouse | plasma | oral | 10 mg/kg | – | 2.1 h
CC(C)[C@H](N)C(=O)N[C@H]1CSSC[C@@H](C(=O)N[C@H](C(N)=O)C(C)C)NC(=O)[C@H](Cc2c[nH]c3ccccc23)NC(=O)[C@H](CCCCN)NC(=O)[C@H](CCCCN)NC(=O)[C@H](Cc2c[nH]c3ccccc23)NC(=O)[C@H](CCCCN)NC(=O)[C@H](CCCNC(=N)N)NC(=O)[C@H](CCCCN)NC(=O)[C@H](Cc2c[nH]c3ccccc23)NC(=O)[C@H](CCCCN)NC(=O)[C@H](CCCCN)NC(=O)[C@H](Cc2c[nH]c3ccccc23)NC(=O)[C@H](CCCNC(=N)N)NC(=O)[C@H](CCCCN)NC1=O | male C57BL/6 mouse | plasma | intravenous | 8 mg/kg | – | 1.8 h

For quick reference, copied from above:
Structure (SMILES) | species | sample | route | dose | notes | half-life
COc1ccc(F)cc1S(=O)(=O)Nc1cnc2c(c1)C(=O)NCCO2 | male C57BL/6 mouse | plasma | oral | 3 mg/kg | single dose | 1.4 h
